Results from different studies.
Each numbered part is a random draw from the data of one study; scales do not carry over between parts.

Study 1 — method: competition protein-binding microarray; molecule type: double-stranded DNA, one strand shown; matrix: in vitro; tested at: 2 µM; together with: Cbf1 competitor, 0.05 µM; reading: higher = stronger binding; endpoint: fluorescence intensity
Target: Phosphate system positive regulatory protein PHO4, full length, GST-tagged (PHO4, Saccharomyces cerevisiae, UniProt P07270, residues 1-312)
Notes: whole 60-bp probe, lowest competitor level
Construct (chain): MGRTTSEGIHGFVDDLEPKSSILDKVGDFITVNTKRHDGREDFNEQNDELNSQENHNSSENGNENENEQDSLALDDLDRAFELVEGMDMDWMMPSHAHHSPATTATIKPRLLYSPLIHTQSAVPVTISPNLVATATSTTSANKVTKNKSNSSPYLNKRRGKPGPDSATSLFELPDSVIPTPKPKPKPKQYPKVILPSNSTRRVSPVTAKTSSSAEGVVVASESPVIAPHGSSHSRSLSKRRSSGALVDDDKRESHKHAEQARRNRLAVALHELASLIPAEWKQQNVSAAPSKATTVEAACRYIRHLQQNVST
CGATATAGAACAAAGCACGTGTAATTATTCAACTTTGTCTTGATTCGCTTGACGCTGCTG: 18400 a.u.
GGCATATCAATATGACATGTGATATCACTCCGCGGCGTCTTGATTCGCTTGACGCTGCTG: 9120 a.u.
CATACCCAACCTTGTCACGTGGGTGAAGATATTTGTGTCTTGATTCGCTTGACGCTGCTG: 20600 a.u.
ATTAGTAATAGCCATCACGTGATGGTCCCTGGAAAGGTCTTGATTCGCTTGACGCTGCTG: 12900 a.u.
TTTGGGAAGACTTAGCACGTTATATACTATTAATGAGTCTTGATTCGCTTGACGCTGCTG: 9240 a.u.
TGCTCTATGATGTTGCACATGCACTTGTTTTGTTGTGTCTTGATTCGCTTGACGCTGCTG: 10700 a.u.
TGCCTTTTTCATTGTCATGTGGGTTTTGGAGAGCTTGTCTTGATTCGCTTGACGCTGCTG: 6790 a.u.
AAATTACTAAGTTTTCACGTGGGCTACCCCGTATGAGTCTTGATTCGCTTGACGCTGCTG: 15900 a.u.
AGTGTCCAACTTATTAAGGTGCGGGCGCCTGGCTTGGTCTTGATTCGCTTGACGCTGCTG: 3850 a.u.
AGAAAGGTAGTGTCCCACGTCAGTAGAACCATGCGCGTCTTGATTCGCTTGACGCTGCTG: 5910 a.u.
AAAGCGGTAATTTTTCACGTGCCCTCACATATCTATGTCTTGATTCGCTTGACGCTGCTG: 14700 a.u.
CTTCTGTAAATTTGCTAGGTGGGTGGACGCGCCCCGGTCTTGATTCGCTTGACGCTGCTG: 3640 a.u.
TAGCGTCCAAGGACGCCCGTGGCCGAGGGAGCACCAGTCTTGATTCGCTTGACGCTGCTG: 7420 a.u.

Study 2 — method: RNA Bind-n-Seq; molecule type: RNA; matrix: in vitro; tested at: 200 nM; notes: whole 134-nt RNA, ends assumed; together with: 150 mM KCl; relative to: input library; reading: higher = stronger binding; endpoint: log2 enrichment
Target: Ras GTPase-activating protein-binding protein 1, full length (G3BP1, Homo sapiens, UniProt Q13283)
UniProt Q13283, sequence (whole entry, looked up): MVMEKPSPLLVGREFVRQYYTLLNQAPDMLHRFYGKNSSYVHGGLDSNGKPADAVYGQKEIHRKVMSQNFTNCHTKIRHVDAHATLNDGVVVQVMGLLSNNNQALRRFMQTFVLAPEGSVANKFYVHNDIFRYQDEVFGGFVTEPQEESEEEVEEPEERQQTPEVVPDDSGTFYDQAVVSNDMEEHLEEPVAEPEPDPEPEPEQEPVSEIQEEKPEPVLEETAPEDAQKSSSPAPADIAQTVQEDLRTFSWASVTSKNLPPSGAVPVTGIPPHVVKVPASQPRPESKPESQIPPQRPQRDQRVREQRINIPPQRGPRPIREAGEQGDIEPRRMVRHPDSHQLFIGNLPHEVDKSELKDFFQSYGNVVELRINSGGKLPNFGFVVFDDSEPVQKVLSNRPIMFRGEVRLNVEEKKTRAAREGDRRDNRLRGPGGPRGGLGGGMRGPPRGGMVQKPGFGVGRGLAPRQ
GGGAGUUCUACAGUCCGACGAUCUCCUCAAGUCCUGUGCUACACAUCGUAUGUACCGAAUCGGGGCGGCGGGCGGAAAGUAUUAUGUUACGCCGUUCGGAUCUGCACUUCCAGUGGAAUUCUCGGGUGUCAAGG: 0.0871
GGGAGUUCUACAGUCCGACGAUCUGGGAGGUGGAUUUUGUUUAUUUUUUUAGCUCAUUUCCUGGGGUGGGAAUUUUUUUUUAAUAUGUGUCAUGAAUAAAGUUGUUUUUGAAAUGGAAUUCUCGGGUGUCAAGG: 0.161
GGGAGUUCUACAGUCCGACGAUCAGGUCAUGGAUCAAAAAGAACAUAAAUUGAAUGGGAAGGUGAUUGAUCCUAAAAGGGCCAAAGCCAUGAAAACAAAAGAGCCGGUUAAAAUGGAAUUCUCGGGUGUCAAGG: -1.32
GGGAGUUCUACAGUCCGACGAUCAAGUCCUGUGCUACACAUCGUAUGUACCGAAUCGGAAAAAGGAAAAAAAGGUUUGGAAAGUAUUAUGUUACGCCGUUCGGAUCUGCACUUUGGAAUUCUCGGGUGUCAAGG: -1.83
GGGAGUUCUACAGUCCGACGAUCAGUCCUGUGCUACACAUCGUAUGUACCGAAUCGGCCCCCGGCCCCCGGGCCCCCGGGAAAGUAUUAUGUUACGCCGUUCGGAUCUGCACUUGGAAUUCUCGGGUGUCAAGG: -0.491
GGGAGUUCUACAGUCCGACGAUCUCCUGUGCUACACAUCGUAUGUACCGAAUCGGGGAAAAAAGGGAAAAAAGGAAAAAAGGAAAGUAUUAUGUUACGCCGUUCGGAUCUGCAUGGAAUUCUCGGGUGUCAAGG: -0.332
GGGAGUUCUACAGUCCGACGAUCUACCCUCGUGCCCCUGUUUUUCCUGGCCGUGGUAGUUACUCAAACAGAGGGAACUACAACAGAGGUGGAAUGCCCAACAGAGGGAACUACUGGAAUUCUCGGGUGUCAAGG: -1.08
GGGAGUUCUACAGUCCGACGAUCCUCAAGUCCUGUGCUACACAUCGUAUGUACCGAAUCGGGUGGGAAAGGGUGGGAAAGUAUUAUGUUACGCCGUUCGGAUCUGCACUUCCAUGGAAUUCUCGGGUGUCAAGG: 1.01

Study 3 — method: RNA Bind-n-Seq; molecule type: RNA; matrix: in vitro; tested at: not given; relative to: input RNA pool; reading: higher = stronger binding; endpoint: bound/input enrichment
Target: RING finger protein unkempt homolog, zinc fingers 1-6, GST-SBP tag (UNK, Homo sapiens, UniProt Q9C0B0, residues 30-357)
UniProt Q9C0B0, sequence (30-357, looked up): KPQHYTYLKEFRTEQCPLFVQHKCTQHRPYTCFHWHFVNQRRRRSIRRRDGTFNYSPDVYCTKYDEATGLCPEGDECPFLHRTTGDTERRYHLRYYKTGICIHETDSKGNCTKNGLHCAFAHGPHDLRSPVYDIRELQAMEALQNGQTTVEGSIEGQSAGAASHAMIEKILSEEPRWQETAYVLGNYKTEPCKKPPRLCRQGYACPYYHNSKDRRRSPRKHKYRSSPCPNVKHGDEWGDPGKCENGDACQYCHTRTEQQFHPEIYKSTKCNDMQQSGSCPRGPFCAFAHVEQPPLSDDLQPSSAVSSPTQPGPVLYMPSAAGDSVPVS
Notes: RNA with constant flanks, human and mouse sites, ends assumed
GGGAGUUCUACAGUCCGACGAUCAUAUUGGAUGCAGUGUAACACUAUCCAAGGCAGUGACUUCAGCUUUAUAUACAUAUAAAAUAUAGUUAGUUUUAAAAUUAUUGACAUUUAUUUAAACUUUUAGAUUGGAUUGUUUGCUAUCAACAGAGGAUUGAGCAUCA: 62.4 ratio
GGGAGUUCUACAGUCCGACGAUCCCAAAAUCUAUUCUUCAGUUGCCAGAGACAGAACUGGGAGAAUAUUCCCUAGGGGGCUAUAGCAUUUCAUUUCUGAAGCAGCUUAUUGCUGGCAAGCUCCAGGAAUCUGUUCCAGACCCGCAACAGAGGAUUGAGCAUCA: 0.316 ratio
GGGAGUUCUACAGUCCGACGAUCUCUUCUGCUAAUACACAGCCCCGGGGUCCCCUUUCUCAGGCACCAACUCCAGCACCUAAGUUUGCUCCAGUGGCUCCUAAAUUUACUCCCGUGGUUUCCAAGUUCAGCCCUGGUGCUCCACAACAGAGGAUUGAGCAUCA: 0.279 ratio
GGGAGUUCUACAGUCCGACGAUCGCGCCAUUCAAGUUUGACAUGGAGUUGGACGACUUACCUAAGGAGAAGCUCAAAGAACUCAUUUUUGAAGAGACUGCUAGAUUCCAGCCAGGAUACAGAUCUUAAAUUGGUCAGGACAAGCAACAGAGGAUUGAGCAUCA: 0.141 ratio
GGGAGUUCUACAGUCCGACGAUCUGCCUAUCUGAAAACUUUGGGCUCUUUCUUGUUUCUUUCCCAAAAUUCAGAAGUUAAUGGGCUUUUAUGUUUUUCUAUAUUUUUUUUAUUUCAAUGAUUUGGCCUGUCUAUGUUAGGCUACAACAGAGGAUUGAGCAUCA: 23 ratio
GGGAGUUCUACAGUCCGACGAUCCCAAAAGGCCAAGCAGCUAUAGAGUUGGACAUUCUGCUAGGAAGUGGAAGGCACAUGAUCAGUCUAUGAGUCAAUAUAAUGCAACAGGGUGUUUUGAGACCUUUGUUUUCACCUCUUGGCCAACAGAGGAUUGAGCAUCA: 0.229 ratio
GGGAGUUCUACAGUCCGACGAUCCGAAUGUUUGCUUACUUCCGACGCAACGCGGCCACGUGGAAGAAUGCAGUGCGUCAUAAUCUUAGUCUUCACAAGUGUUUUGUGCGAGUAGAAAACGUUAAAGGGGCAGUAUGGACAGUGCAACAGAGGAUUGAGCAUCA: 4.77 ratio

Study 4 — method: protein binding microarray; molecule type: double-stranded DNA, one strand shown; matrix: in vitro; tested at: not given; relative to: not given; reading: higher = stronger binding; endpoint: E-score
Target: Histone acetyltransferase KAT6A, both winged helices, GST fusion (KAT6A, Homo sapiens, UniProt Q92794, residues 1-181)
Notes: 8-mer, flanks averaged, mean of 2 arrays, mostly near background
Construct (chain): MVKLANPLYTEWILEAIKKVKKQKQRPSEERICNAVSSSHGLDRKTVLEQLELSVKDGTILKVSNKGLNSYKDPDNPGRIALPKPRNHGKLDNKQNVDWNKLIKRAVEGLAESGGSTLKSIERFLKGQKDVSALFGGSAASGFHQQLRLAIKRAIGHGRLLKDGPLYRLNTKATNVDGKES
CATGCCCC: -0.172
CACCCGTC: 0.218
CGGGAATC: 0.165
CCAGATCG: 0.039
GAGATGAC: -0.0549
GATGAGCA: -0.133
GATCATCC: -0.0738
CTGGTCGA: -0.101
GTCGAGGA: -0.147
ATGTCTAA: -0.0171
AGTTAAAG: -0.0864
GGCAGACA: 0.043
AGCATTGC: -0.0325
ACGCGGAT: 0.242
GAACATAA: -0.0443

Study 5 — method: aptamer microarray, sandwich; molecule type: DNA with 2'F-ANA; matrix: in vitro; tested at: 200 nM; together with: Cy3 exosite-II aptamer, 400 nM; reading: higher = stronger binding; endpoint: mean fluorescence intensity; strand: GGTTGGTGTGGTTGG
Target: Prothrombin, mature alpha-thrombin (F2, Homo sapiens, UniProt P00734)
Notes: whole 15-mer aptamer, many near background
2'F-ANA at 1 4 5 11 13: 66.7 a.u.
2'F-ANA at 5 6 7 9 11 12 13 14 15: 59.9 a.u.
2'F-ANA at 3 4 5 6 7 8 14 15: 50.1 a.u.
2'F-ANA at 1 2 3 6 8 9 10 12: 85.5 a.u.
2'F-ANA at 1 2 5 8 11 13 14 15: 51.2 a.u.
2'F-ANA at 1 4 5 6 7 8 9 14: 54.8 a.u.
2'F-ANA at 1 2 3 9 10 12 13: 87.8 a.u.
2'F-ANA at 2 3 6 10 11 13 14 15: 206 a.u.
2'F-ANA at 4 6 8 10 11 12 14: 55 a.u.
2'F-ANA at 2 4 6 8 9 12 14 15: 110 a.u.
2'F-ANA at 1 2 3 4 6 7 8 10 11 12 13 14: 53.5 a.u.
2'F-ANA at 4 5 6 7 12 13 15: 84.6 a.u.
2'F-ANA at 1 2 3 4 9 11 13 14: 53.5 a.u.
2'F-ANA at 4 5 6 9 10 12 13 14: 87.9 a.u.
2'F-ANA at 5 9 10 12 15: 53 a.u.
2'F-ANA at 2 3 4 5 9 12 13 15: 115 a.u.
2'F-ANA at 2 4 5 8 10 13 15: 46.6 a.u.

Study 6 — method: protein-binding microarray; molecule type: double-stranded DNA, one strand shown; matrix: in vitro; tested at: 2540 nM top; notes: 60-bp whole probe; together with: salmon DNA 0.4 mg/ml; relative to: random background probes; reading: higher = stronger binding; endpoint: fitted relative affinity; shared flanks, not repeated: GCCTAGCAC … GTCTTGATTCGCTTGACGCTGCTG
Target: Interferon regulatory factor 3, full length, phosphomimetic (IRF3, Homo sapiens, UniProt Q14653, residues 1-427, S386D/S396D/S398D/S402D/T404D/S405D)
Residues (chain): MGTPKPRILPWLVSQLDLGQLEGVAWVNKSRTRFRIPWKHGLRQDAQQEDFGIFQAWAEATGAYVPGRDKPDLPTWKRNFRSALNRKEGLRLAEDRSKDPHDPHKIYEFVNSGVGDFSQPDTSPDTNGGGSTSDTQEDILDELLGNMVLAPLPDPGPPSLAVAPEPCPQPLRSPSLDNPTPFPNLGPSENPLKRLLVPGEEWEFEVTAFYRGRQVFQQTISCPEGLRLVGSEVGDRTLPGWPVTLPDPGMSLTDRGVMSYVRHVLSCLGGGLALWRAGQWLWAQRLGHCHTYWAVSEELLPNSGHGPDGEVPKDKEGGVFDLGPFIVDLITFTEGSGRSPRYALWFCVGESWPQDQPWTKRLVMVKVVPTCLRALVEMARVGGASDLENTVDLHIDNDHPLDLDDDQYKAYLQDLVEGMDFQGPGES
GCATCTCGGAGATCTCGAAGCGTGCTA: 0.0716 z-score
TTAGTTTTCGACTTTCGGTTAGTGCTA: 4.12 z-score
TTAGGTATCGACTATGGGTTAGTGCTA: 0.24 z-score
GACGATTTCAGTTTCGAAACGTGCTAG: 6 z-score
TCACTTCTCTTTTTGCTACTGTGCTAG: 3.32 z-score
AGGAATCTTGAGTTAGAGACGTGCTAG: -0.644 z-score
ATTACTTTAGGTTCCCAGGTGTGCTAG: 1.37 z-score
TTAGGTTTCCTTTTCCTATAGTGCTAG: 11.8 z-score
GACGGTATCGGGGTTCGGGACGTGCTA: 0.922 z-score
TCACATTCCCCATTGTGACTGTGCTAG: 2.1 z-score
GGTTTTCTCTATTGCTTTCTGTGCTAG: 2.04 z-score
GACGGTCTCGCTTTCGGGACGTGCTAG: 2.04 z-score
TTAGGTTTCGGGACTCGGTTAGTGCTA: 4.15 z-score
GACGGTATCGGGTTTAGGGACGTGCTA: 2.2 z-score
GAACCTTGGGCTCTAGGTTCGTGCTAG: -0.23 z-score
TTAGGTATAGGGACTGGGTTAGTGCTA: -0.804 z-score
GACGGTTTCCTTATCCAGACGTGCTAG: 8.44 z-score

Excerpt of the above (study 4):
CATGCCCC: -0.172
CCAGATCG: 0.039
AGTTAAAG: -0.0864
GAACATAA: -0.0443
ACGCGGAT: 0.242
GATGAGCA: -0.133
ATGTCTAA: -0.0171
